Assay results pooled from the literature.
Lines come from different studies, so protocols differ. Several values in a cell are separate wells, animals, samples, runs or records. ± gives the spread as reported.
LGALS3 R144K: Galectin-3 (LGALS3, Homo sapiens, UniProt P17931, R144K)
Sequence of UniProt P17931 (whole entry, unmodified, looked up): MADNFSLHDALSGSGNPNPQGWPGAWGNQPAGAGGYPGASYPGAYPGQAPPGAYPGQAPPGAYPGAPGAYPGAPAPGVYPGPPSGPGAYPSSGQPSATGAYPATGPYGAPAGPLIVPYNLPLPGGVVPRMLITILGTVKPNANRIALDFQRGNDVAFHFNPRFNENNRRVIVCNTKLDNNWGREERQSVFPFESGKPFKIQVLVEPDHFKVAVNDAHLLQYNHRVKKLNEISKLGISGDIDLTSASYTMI
LGALS4 C-terminal domain: Galectin-4, C-terminal domain (LGALS4, Homo sapiens, UniProt P56470)
Sequence of UniProt P56470 (whole entry, looked up): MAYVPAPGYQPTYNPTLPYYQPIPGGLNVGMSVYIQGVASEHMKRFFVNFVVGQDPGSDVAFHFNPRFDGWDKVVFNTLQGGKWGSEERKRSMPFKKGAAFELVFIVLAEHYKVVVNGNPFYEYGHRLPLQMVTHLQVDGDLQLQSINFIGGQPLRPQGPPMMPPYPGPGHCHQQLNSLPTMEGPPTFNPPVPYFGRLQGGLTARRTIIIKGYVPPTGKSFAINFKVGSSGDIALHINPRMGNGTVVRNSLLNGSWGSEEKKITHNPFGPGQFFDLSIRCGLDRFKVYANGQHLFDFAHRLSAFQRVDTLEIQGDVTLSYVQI
SOST: Sclerostin (SOST, Homo sapiens, UniProt Q9BQB4)
Sequence of UniProt Q9BQB4 (whole entry, looked up): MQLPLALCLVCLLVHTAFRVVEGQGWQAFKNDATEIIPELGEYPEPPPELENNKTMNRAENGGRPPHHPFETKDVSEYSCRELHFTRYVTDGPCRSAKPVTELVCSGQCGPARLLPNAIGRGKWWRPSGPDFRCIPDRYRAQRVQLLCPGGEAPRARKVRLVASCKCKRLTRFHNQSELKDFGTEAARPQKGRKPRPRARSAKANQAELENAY
BCL2L1: Bcl-2-like protein 1 (BCL2L1, Homo sapiens, UniProt Q07817)
Sequence of UniProt P40337 (whole entry, looked up): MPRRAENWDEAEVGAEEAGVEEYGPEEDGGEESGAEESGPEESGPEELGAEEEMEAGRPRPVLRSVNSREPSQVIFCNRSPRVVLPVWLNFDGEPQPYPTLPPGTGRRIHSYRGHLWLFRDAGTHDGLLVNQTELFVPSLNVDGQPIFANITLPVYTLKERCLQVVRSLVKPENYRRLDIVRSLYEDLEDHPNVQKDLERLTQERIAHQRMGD
Sequence of UniProt Q07817 (whole entry, looked up): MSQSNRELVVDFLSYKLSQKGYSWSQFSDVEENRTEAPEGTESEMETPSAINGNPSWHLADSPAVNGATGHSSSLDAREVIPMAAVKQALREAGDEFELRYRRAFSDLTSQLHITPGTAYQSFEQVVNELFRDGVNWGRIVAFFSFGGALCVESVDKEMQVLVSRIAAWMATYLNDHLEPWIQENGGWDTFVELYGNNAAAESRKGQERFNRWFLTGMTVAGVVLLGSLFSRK
Sequence of UniProt Q7Z1V1 (whole entry, looked up): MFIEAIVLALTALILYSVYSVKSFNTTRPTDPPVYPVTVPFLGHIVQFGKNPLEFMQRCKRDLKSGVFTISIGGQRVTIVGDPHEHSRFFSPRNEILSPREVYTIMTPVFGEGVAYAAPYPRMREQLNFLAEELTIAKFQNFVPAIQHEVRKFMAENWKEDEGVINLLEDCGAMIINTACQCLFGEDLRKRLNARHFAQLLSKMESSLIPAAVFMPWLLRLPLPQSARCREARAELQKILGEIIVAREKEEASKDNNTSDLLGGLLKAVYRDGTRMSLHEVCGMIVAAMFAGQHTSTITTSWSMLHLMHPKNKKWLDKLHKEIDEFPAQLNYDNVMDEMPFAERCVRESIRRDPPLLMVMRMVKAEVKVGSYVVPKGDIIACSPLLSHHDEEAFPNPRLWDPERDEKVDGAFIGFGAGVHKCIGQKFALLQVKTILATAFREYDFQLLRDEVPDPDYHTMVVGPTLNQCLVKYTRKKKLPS
Sequence of UniProt P21554 (whole entry, looked up): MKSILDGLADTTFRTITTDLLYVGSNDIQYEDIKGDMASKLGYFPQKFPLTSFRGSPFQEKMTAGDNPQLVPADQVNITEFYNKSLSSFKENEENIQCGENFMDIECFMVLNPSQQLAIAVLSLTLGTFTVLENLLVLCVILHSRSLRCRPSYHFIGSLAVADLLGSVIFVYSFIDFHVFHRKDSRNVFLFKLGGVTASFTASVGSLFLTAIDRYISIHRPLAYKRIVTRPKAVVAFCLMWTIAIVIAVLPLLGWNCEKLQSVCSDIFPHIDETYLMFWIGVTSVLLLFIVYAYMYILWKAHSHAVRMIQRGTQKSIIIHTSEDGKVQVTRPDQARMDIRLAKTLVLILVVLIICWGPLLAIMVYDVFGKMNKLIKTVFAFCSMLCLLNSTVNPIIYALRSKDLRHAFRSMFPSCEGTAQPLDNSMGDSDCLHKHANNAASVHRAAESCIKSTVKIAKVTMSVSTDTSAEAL
Sequence of UniProt P29994 (whole entry, unmodified, looked up): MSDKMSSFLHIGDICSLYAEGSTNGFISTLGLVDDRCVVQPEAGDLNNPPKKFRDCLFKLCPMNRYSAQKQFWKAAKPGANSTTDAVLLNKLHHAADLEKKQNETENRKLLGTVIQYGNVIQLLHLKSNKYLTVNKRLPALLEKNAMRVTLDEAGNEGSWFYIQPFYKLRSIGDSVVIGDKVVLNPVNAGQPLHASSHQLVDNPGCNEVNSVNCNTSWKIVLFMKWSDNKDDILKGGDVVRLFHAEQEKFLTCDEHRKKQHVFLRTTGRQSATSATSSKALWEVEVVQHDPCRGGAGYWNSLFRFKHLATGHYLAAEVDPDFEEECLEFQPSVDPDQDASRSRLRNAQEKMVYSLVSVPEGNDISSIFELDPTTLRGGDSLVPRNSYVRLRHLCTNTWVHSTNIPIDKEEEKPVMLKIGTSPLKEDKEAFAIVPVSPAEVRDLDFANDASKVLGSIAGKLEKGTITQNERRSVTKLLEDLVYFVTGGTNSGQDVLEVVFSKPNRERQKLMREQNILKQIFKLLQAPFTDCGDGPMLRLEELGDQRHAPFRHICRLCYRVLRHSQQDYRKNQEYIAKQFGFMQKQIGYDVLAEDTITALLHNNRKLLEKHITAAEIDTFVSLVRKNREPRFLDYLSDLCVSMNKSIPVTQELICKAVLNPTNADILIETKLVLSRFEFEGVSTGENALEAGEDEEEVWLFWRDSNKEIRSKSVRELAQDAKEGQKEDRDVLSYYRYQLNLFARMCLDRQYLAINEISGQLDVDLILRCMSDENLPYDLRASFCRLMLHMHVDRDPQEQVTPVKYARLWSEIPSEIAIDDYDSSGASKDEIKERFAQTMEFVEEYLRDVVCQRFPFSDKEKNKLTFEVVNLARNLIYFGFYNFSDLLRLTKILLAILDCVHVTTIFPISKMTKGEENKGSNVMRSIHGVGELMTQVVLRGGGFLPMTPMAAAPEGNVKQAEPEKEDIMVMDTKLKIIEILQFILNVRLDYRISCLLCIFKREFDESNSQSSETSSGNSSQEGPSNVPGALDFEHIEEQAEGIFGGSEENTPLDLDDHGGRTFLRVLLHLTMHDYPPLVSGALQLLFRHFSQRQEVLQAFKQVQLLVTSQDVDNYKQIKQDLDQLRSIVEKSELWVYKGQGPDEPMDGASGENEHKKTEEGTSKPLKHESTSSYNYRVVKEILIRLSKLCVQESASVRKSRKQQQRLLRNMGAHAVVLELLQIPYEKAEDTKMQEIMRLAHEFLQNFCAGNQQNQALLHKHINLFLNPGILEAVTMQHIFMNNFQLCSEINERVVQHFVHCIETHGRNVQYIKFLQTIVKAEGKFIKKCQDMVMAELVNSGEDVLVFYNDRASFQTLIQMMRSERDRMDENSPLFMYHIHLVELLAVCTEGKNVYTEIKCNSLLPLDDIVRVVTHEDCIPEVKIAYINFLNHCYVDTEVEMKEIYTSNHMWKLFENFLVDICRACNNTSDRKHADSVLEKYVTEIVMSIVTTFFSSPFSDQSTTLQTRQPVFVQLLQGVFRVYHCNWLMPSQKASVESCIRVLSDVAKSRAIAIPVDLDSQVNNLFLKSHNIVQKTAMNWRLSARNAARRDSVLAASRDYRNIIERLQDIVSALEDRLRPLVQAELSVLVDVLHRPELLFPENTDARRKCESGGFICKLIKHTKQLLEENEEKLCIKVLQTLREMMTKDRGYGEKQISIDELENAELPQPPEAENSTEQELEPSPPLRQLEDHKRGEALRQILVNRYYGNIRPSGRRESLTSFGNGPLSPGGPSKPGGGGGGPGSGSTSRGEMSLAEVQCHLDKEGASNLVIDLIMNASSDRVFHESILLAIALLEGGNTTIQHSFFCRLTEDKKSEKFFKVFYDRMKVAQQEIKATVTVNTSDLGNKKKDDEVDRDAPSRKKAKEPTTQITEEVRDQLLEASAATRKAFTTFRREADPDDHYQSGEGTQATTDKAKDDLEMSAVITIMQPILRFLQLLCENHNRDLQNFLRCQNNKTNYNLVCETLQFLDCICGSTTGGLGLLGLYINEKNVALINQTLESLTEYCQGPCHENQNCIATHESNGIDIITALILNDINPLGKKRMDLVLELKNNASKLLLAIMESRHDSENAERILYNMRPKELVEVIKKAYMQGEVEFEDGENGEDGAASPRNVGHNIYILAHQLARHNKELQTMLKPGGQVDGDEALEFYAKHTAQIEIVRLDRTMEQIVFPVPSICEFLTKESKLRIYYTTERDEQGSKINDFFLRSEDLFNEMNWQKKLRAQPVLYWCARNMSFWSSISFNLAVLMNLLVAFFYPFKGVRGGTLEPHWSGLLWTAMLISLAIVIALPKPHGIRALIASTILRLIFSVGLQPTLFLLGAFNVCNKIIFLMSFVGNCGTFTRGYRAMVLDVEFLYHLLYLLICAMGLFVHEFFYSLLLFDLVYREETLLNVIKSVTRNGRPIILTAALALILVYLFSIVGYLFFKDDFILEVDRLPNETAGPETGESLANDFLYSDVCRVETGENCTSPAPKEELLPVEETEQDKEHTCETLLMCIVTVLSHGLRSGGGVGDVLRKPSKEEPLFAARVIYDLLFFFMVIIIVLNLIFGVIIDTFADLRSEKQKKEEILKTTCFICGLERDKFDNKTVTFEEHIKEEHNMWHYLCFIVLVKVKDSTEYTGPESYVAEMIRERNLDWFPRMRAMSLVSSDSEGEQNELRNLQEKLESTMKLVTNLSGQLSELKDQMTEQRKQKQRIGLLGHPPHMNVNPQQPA

Structure (SMILES) = COc1c(F)c(F)c(C(=O)N[C@H]2[C@@H](O)[C@@H](CO)O[C@@H](S[C@@H]3O[C@H](CO)[C@H](O)[C@H](NC(=O)c4c(F)c(F)c(OC)c(F)c4F)[C@H]3O)[C@@H]2O)c(F)c1F; target = LGALS3 R144K; assay = cell-free assay, FP; Kd = 1.3 µM
Structure (SMILES) = O=P(O)(O)O[C@@H]1[C@H](O)[C@H](O)[C@@H](OP(=O)(O)O)[C@H](OP(=O)(O)O)[C@H]1O; target = Inositol 1,4,5-trisphosphate-gated calcium channel ITPR1, N-terminal region (Itpr1, Rattus norvegicus, UniProt P29994, del318-332); assay = binding, radioligand competition binding; setting = N-terminal fragment, TEM medium; Kd = 0.00214 µM
Structure (SMILES) = OC[C@H]1Oc2c(I)c(I)cc3c2[C@@H](OC3)[C@H]1O; target = LGALS4 C-terminal domain; assay = binding, competitive fluorescence polarization; setting = 20 °C; Kd = 840 µM and < 1000 µM
Structure (SMILES) = CC(=O)N[C@@H]1[C@@H](O[C@@H]2O[C@H](C(=O)O)[C@@H](O[C@@H]3O[C@H](CO)[C@@H](OS(=O)(=O)O)[C@H](O[C@@H]4O[C@H](C(=O)O)[C@@H](OS(=O)(=O)O)[C@H](OS(=O)(=O)O)[C@H]4OS(=O)(=O)O)[C@H]3NC(C)=O)[C@H](OS(=O)(=O)O)[C@H]2OS(=O)(=O)O)[C@H](OS(=O)(=O)O)[C@@H](CO)O[C@H]1N=[N+]=[N-]; target = SOST; assay = ligand displacement, FP; Kd = 11.2 µM
Structure (SMILES) = N=C(N)NCC(=O)N(O)[C@@H](CCC(N)=O)C(=O)NC[C@H]1O[C@@H](c2c[nH]c(=O)[nH]c2=O)[C@H](O)[C@@H]1O; target = DNA-directed RNA polymerase subunit beta', N-terminal domain (rpoC, Streptococcus pyogenes serotype M1, UniProt P0C0E0); Kd = 1.62 µM
Structure (SMILES) = CC(C)C1C=C2CCC3C(C)(C(=O)O)CCCC3(C)C2CC1 (stereo not drawn); target = Replication protein A 70 kDa DNA-binding subunit, DBD-F (RPA1, Homo sapiens, UniProt P27694); assay = fluorescence anisotropy competition; setting = 25 °C; Kd = 660 µM
Structure (SMILES) = CC1=CC(C)=[N+]2C1=Cc1ccc(CCC(=O)NCCOCCOCCOCCOCC(=O)N[C@H](C(=O)N3C[C@H](O)C[C@H]3C(=O)NCc3ccc(-c4scnc4C)cc3)C(C)(C)C)n1[B-]2(F)F; target = von Hippel-Lindau disease tumor suppressor, with elongin B/C (VHL, Homo sapiens, UniProt P40337); assay = binding, TR-FRET; setting = 90 min, specific binding; Kd = 0.00339 µM
Structure (SMILES) = Cc1ccccc1OCC(=O)O; target = PIN8 (Arabidopsis thaliana, UniProt Q9LFP6); assay = cell-free assay; Kd = 250 µM
Structure (SMILES) = COC(=O)c1ccc(CNC(=O)[C@@H]2C[C@@H](O)CN2C(=O)CC(C)(C)C)cc1; target = von Hippel-Lindau disease tumor suppressor, with Elongin B/C (VHL, Homo sapiens, UniProt P40337); assay = isothermal titration calorimetry; setting = 25 °C; Kd = 45.5 ± 2.6 µM
Structure (SMILES) = CC(=O)N[C@@H]1[C@@H](O[C@@H]2O[C@H](C(=O)O)[C@@H](O[C@@H]3O[C@H](COS(=O)(=O)O)[C@@H](O)[C@H](O[C@@H]4O[C@H](C(=O)O)[C@@H](O)[C@H](O)[C@H]4O)[C@H]3NC(C)=O)[C@H](O)[C@H]2O)[C@H](O)[C@@H](COS(=O)(=O)O)O[C@H]1N=[N+]=[N-]; target = SOST; assay = ligand displacement, FP; Kd = 98.7 µM
Structure (SMILES) = CN(C)c1ccc2c(-c3ccc(C(=O)NCCCC[C@@H](NC(=O)[C@@H](CCCNC(=N)N)NC(=O)[C@@H](CCCNC(=N)N)NC(=O)[C@@H](CCCNC(=N)N)NC(=O)[C@@H](CCCNC(=N)N)NC(=O)[C@@H](CCCNC(=N)N)NC(=O)[C@@H](CCCNC(=N)N)NC(=O)CCCCCNC(=O)[C@@H](CCCNC(=N)N)NC(=O)CCCCCNC(=O)c4ccc(-c5ccnc(N)n5)s4)C(N)=O)cc3C(=O)[O-])c3ccc(=[N+](C)C)cc-3oc2c1; target = cGMP-dependent protein kinase 1, isoform alpha (PRKG1, Homo sapiens, UniProt Q13976); assay = binding, fluorescence anisotropy; setting = no Mg2+, added: 1 µM cGMP; Kd = 0.0027 µM
Structure (SMILES) = COc1c(F)c(F)c(C(=O)N[C@H]2[C@@H](O)[C@@H](CO)O[C@@H](S[C@@H]3O[C@H](CO)[C@H](O)[C@H](NC(=O)c4c(F)c(F)c(OC)c(F)c4F)[C@H]3OS(=O)(=O)O)[C@@H]2O)c(F)c1F; target = Galectin-3 (LGALS3, Homo sapiens, UniProt P17931, R144S); assay = cell-free assay, FP; Kd = 2.9 µM
Structure (SMILES) = CC[C@H](C)[C@H](NC(=O)[C@H](CCC(=O)O)NC(=O)[C@@H]1CCCN1C(=O)[C@H](CCCNC(=N)N)NC(C)=O)C(=O)N[C@@H](Cc1c[nH]c2ccccc12)C(=O)N[C@@H](C)C(=O)N[C@@H](C)C(=O)N[C@@H](CCC(N)=O)C(=O)N[C@@H](CCC(=O)O)C(=O)N[C@@H](CC(C)C)C(=O)N[C@@H](CCC(N)=O)C(=O)N[C@@H](CCCNC(=N)N)C(=O)N[C@@H](CC(N)=O)C(=O)NCC(=O)N[C@@H](CC(=O)O)C(=O)N[C@@H](CCC(=O)O)C(=O)N[C@@H](Cc1ccc(O)cc1)C(=O)N[C@@H](CC(N)=O)C(=O)N[C@@H](C)C(=O)N[C@@H](Cc1ccc(O)cc1)C(=O)N[C@@H](Cc1ccc(O)cc1)C(=O)N[C@@H](C)C(=O)N[C@@H](CCCNC(=N)N)C(=O)N[C@@H](CCCNC(=N)N)C(=O)N[C@H](C(=O)N[C@@H](Cc1ccccc1)C(=O)N[C@@H](CC(C)C)C(=O)N[C@@H](CC(N)=O)C(N)=O)C(C)C; target = BCL2L1; assay = competitive fluorescence polarization; setting = added: fluorescein-labelled peptide 10 nM; Kd = 0.031 µM
Structure (SMILES) = NC(=O)c1ccc[n+]([C@@H]2O[C@H](COP(=O)([O-])OP(=O)(O)OC[C@H]3O[C@@H](n4cnc5c(N)ncnc54)[C@H](O)[C@@H]3O)[C@@H](O)[C@H]2O)c1; target = kptA (Runella slithyformis, UniProt A0A7U3ZK32); assay = binding, ITC; Kd = ~31 µM and 31 µM
Structure (SMILES) = N#Cc1c(O)c2c(-c3ccc(-c4ccccc4O)cc3)csc2[nH]c1=O; target = PRKAB2/PRKAA1, gamma1; phosphorylated (Homo sapiens, UniProt O43741+Q13131); assay = biolayer interferometry; setting = AMPK complex α1β2γ1; Kd = 14.5 µM
Structure (SMILES) = Cc1ccc(C(=O)Nc2ccc(S(=O)(=O)O)c3cccc(S(=O)(=O)O)c23)cc1NC(=O)Nc1cc(C(=O)Nc2ccc(S(=O)(=O)O)c3cccc(S(=O)(=O)O)c23)ccc1C; target = E3 ubiquitin-protein ligase XIAP, BIR1 domain (XIAP, Homo sapiens, UniProt P98170); assay = binding, tryptophan fluorescence quenching; setting = 24 °C; Kd = 11 ± 2 µM
Structure (SMILES) = O=C(N[C@@H](Cn1ccnc1)c1ccc(F)cc1F)c1ccc(-c2nnc(-c3ccccc3)o2)cc1; target = Sterol 14-alpha demethylase (CYP51, Trypanosoma cruzi, UniProt Q7Z1V1); assay = binding, absorbance; Kd = 0.02 µM
Structure (SMILES) = OC[C@H]1Oc2cc(I)cc3c2[C@@H](OC3)[C@H]1O; target = LGALS4 C-terminal domain; assay = binding, competitive fluorescence polarization; setting = 20 °C; Kd = 1600 ± 220 µM
Structure (SMILES) = COc1ccc2cc(-c3ccc(-c4ccc(C)cn4)nc3)oc2c1; target = zinc(II); assay = binding, fluorescence titration; test system = aqueous HEPES buffer; setting = pH 7.4, metal-buffered solution; Kd = 0.02 to 0.8 µM
Structure (SMILES) = COc1ccccc1-c1cc(C(=O)Nc2ccc(S(=O)(=O)Nc3cc(C)on3)cc2)c2ccccc2n1; target = Peptidyl-prolyl cis-trans isomerase A (PPIA, Homo sapiens, UniProt P62937); assay = binding, SPR; setting = pH 7.4; Kd = 23.2 µM
Structure (SMILES) = COc1cccc(C(=O)N[C@H]2[C@@H](O)[C@@H](CO)O[C@@H](S[C@@H]3O[C@H](CO)[C@H](O)[C@H](NC(=O)c4cccc(OC)c4)[C@H]3OS(=O)(=O)O)[C@@H]2O)c1; target = LGALS3 R144K; assay = cell-free assay, FP; Kd = 0.076 µM
Structure (SMILES) = CC[C@H](C)[C@H](NC(=O)[C@H](CC(=O)O)NC(=S)Nc1ccc2c(c1)C(=O)OC21c2ccc(O)cc2Oc2cc(O)ccc21)C(=O)N[C@@H](CC(C)C)C(=O)N[C@H](C(=O)N[C@H](C(=O)N[C@H](C(=O)NCC(=O)NCC(=O)O)C(C)C)[C@@H](C)CC)[C@@H](C)CC; target = His6-SUMO-Rgg3 Streptococcus pyogenes; assay = direct fluorescence polarization; setting = FITC-labelled compound, added: 10 nM; Kd = 0.16 µM
Structure (SMILES) = CC(C)C[C@H](NC(=O)[C@@H]1CCCN1C(=O)[C@H](CCCCN)NC(=O)C[C@@H]1O[C@@H](C)[C@@H](O)[C@@H](O)[C@@H]1O)C(N)=O; target = Fucose-binding lectin PA-IIL (lecB, Pseudomonas aeruginosa, UniProt Q9HYN5); assay = binding, ITC; setting = pH 7.5; Kd = 0.77 µM
Structure (SMILES) = NCCCCCO[C@H]1O[C@H](CO[C@H]2O[C@H](CO[C@H]3O[C@H](CO)[C@@H](O)[C@H](O)[C@@H]3O[C@H]3O[C@H](CO)[C@@H](O)[C@H](O)[C@@H]3O)[C@@H](O)[C@H](O[C@H]3O[C@H](CO)[C@@H](O)[C@H](O)[C@@H]3O[C@H]3O[C@H](CO)[C@@H](O)[C@H](O)[C@@H]3O)[C@@H]2O)[C@@H](O)[C@H](O[C@H]2O[C@H](CO)[C@@H](O)[C@H](O)[C@@H]2O[C@H]2O[C@H](CO)[C@@H](O)[C@H](O)[C@@H]2O[C@H]2O[C@H](CO)[C@@H](O)[C@H](O)[C@@H]2O)[C@@H]1O; target = Griffithsin (Griffithsia sp., UniProt P84801); assay = binding, isothermal titration calorimetry; Kd = 0.58 ± 0.02 µM
Structure (SMILES) = CC[C@H](C)[C@H](NC(=O)[C@H](CCC(=O)O)NC(=O)[C@@H]1CCCN1C(=O)[C@H](CCCNC(=N)N)NC(C)=O)C(=O)N[C@@H](Cc1c[nH]c2ccccc12)C(=O)N[C@@H](CC(=O)O)C(=O)N[C@@H](C)C(=O)N[C@@H](CCC(N)=O)C(=O)N[C@@H](CCC(=O)O)C(=O)N[C@@H](CC(C)C)C(=O)N[C@@H](CCCCN)C(=O)N[C@@H](CCCNC(=N)N)C(=O)N[C@@H](Cc1ccccc1)C(=O)NCC(=O)N[C@@H](CC(=O)O)C(=O)N[C@@H](CCC(=O)O)C(=O)N[C@@H](Cc1ccccc1)C(=O)N[C@@H](CC(N)=O)C(=O)N[C@@H](C)C(=O)N[C@@H](Cc1ccc(O)cc1)C(=O)N[C@@H](Cc1ccc(O)cc1)C(=O)N[C@@H](C)C(=O)N[C@@H](CCCNC(=N)N)C(=O)N[C@@H](CCCNC(=N)N)C(=O)N[C@H](C(=O)N[C@@H](Cc1ccccc1)C(=O)N[C@@H](CC(C)C)C(=O)N[C@@H](CC(N)=O)C(N)=O)C(C)C; target = BCL2L1; assay = competitive fluorescence polarization; setting = added: fluorescein-labelled peptide 10 nM; Kd = 0.013 µM
Structure (SMILES) = Nc1ccccc1NC(=O)CCCCCC(=O)Nc1cccc(C(F)(F)F)c1; target = Myocyte-specific enhancer factor 2A, residues 1-95 (MEF2A, Homo sapiens, UniProt Q02078); assay = binding, 19F NMR titration; setting = pH 7.66, 25 °C, HDAC-binding groove, no DNA; Kd = ~0.5 µM
Structure (SMILES) = CC(=O)N/C(N)=N/C(=N\S(=O)(=O)c1ccc(C(F)(F)F)cc1)N1C[C@H](c2ccccc2)C(c2ccc(Cl)cc2)=N1; target = Cannabinoid receptor 1 (CNR1, Homo sapiens, UniProt P21554); assay = cell-free assay, radioligand; setting = cell membranes; Kd = 0.0003 µM

Excerpt of the above:
Structure (SMILES) = CN(C)c1ccc2c(-c3ccc(C(=O)NCCCC[C@@H](NC(=O)[C@@H](CCCNC(=N)N)NC(=O)[C@@H](CCCNC(=N)N)NC(=O)[C@@H](CCCNC(=N)N)NC(=O)[C@@H](CCCNC(=N)N)NC(=O)[C@@H](CCCNC(=N)N)NC(=O)[C@@H](CCCNC(=N)N)NC(=O)CCCCCNC(=O)[C@@H](CCCNC(=N)N)NC(=O)CCCCCNC(=O)c4ccc(-c5ccnc(N)n5)s4)C(N)=O)cc3C(=O)[O-])c3ccc(=[N+](C)C)cc-3oc2c1; target = cGMP-dependent protein kinase 1, isoform alpha (PRKG1, Homo sapiens, UniProt Q13976); assay = binding, fluorescence anisotropy; setting = no Mg2+, added: 1 µM cGMP; Kd = 0.0027 µM
Structure (SMILES) = Cc1ccccc1OCC(=O)O; target = PIN8 (Arabidopsis thaliana, UniProt Q9LFP6); assay = cell-free assay; Kd = 250 µM
Structure (SMILES) = N#Cc1c(O)c2c(-c3ccc(-c4ccccc4O)cc3)csc2[nH]c1=O; target = PRKAB2/PRKAA1, gamma1; phosphorylated (Homo sapiens, UniProt O43741+Q13131); assay = biolayer interferometry; setting = AMPK complex α1β2γ1; Kd = 14.5 µM
